Measured values from different studies.
Each numbered part is a random draw from the data of one study; scales do not carry over between parts. Positions count from the first letter of the parent shown.
Sequence of UniProt P14616 (whole entry, looked up): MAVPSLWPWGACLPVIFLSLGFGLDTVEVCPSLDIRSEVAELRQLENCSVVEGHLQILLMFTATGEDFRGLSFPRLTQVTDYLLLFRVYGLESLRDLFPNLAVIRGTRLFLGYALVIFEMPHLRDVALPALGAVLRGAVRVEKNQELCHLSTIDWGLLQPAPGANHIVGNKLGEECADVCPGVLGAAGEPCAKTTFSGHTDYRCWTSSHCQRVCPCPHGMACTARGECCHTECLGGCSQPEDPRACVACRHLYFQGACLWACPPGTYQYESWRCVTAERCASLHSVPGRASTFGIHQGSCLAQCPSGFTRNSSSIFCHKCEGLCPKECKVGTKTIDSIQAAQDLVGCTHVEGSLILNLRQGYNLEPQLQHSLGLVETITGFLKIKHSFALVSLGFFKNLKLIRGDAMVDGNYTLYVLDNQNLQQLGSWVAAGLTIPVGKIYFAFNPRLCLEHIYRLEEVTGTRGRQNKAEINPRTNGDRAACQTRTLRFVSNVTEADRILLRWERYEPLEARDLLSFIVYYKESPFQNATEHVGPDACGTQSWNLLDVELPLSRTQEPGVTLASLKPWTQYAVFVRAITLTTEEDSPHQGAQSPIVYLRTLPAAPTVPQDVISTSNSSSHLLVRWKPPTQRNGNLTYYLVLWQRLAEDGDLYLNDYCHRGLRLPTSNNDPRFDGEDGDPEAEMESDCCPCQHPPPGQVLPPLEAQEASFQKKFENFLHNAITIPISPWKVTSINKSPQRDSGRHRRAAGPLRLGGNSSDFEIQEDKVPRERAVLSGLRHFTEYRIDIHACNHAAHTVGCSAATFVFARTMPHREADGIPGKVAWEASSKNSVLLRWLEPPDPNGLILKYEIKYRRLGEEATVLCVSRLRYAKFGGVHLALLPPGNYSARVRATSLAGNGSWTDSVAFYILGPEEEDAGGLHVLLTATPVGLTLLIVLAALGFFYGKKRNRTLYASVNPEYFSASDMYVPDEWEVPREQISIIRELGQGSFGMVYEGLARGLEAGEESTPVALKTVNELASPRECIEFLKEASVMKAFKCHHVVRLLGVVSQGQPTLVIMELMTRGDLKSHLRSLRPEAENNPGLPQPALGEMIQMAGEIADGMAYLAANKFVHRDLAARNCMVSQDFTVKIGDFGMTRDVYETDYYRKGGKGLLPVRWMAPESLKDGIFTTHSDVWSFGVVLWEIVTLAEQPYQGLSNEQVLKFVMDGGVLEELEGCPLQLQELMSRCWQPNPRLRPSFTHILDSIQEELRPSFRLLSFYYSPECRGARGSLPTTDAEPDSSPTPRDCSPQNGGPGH

Sample 1 — target: CCNE2, cyclin fold, Cln2 fusion (human); technique: yeast growth competition, sequencing; sample: yeast; notes: strong parent motif; relative to: not given; reading: higher = stronger binding
Starting sequence: viral docking peptide; KGVKRKLFAEDSS; partner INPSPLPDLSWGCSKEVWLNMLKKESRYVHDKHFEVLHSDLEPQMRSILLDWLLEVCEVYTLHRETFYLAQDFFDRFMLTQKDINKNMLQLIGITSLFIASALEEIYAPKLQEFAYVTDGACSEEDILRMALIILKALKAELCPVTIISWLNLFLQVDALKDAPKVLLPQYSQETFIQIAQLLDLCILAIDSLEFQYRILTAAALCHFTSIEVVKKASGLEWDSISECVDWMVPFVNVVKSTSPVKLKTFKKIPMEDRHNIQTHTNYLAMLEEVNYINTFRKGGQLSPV
| Substitution | normalised enrichment score |
| --- | --- |
| KGSKRKLFAEDSS [V3S] | 1.14 |
| KGVKRKLFIEDSS [A9I] | 6.81 |
| KGNKRKLFAEDSS [V3N] | 0.532 |
| KGGKRKLFAEDSS [V3G] | 1.2 |
| KGVKTKLFAEDSS [R5T] | 0.304 |
| KGVKRKLAAEDSS [F8A] | 0.625 |
| KGVKRKLFAEFSS [D11F] | 5.93 |
| KGVKRKLFCEDSS [A9C] | 6.81 |

Sample 2 — read-out: binding; technique: phage display NGS; molecule type: peptide; relative to: input library
Target: UDP-N-acetylglucosamine--peptide N-acetylglucosaminyltransferase 110 kDa subunit (OGT, Homo sapiens, UniProt O15294)
Sequence of UniProt O15294 (whole entry, looked up): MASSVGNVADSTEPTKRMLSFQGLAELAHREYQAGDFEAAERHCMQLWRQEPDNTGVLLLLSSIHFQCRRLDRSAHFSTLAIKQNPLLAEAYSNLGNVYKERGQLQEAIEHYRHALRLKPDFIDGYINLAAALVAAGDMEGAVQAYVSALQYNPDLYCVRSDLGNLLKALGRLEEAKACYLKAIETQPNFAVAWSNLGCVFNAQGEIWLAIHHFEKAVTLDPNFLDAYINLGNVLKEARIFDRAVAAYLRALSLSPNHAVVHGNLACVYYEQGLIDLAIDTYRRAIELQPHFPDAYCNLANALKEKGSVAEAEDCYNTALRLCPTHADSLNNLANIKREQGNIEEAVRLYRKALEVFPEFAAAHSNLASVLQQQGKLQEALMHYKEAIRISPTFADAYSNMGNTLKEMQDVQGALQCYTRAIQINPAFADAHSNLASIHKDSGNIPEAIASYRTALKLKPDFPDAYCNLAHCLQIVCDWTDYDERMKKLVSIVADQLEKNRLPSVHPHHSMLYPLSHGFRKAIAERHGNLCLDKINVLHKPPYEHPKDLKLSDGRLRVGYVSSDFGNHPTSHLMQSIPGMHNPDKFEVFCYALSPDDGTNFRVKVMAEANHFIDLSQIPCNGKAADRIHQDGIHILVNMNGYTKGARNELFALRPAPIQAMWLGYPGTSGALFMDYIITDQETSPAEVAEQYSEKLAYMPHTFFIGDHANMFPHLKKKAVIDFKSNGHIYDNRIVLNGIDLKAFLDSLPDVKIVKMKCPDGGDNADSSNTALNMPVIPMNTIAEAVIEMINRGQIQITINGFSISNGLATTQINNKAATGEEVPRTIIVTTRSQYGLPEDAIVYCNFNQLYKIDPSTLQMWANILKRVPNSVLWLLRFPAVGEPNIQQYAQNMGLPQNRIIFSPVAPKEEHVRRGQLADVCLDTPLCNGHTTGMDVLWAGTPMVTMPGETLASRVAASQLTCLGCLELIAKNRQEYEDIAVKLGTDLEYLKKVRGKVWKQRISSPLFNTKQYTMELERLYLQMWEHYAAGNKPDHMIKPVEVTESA
| Sequence | minimum log2 enrichment ratio |
| --- | --- |
| QYPPAYQISIMPYKG | 3.59 |
| IDLSPKYQIVLNATD | 3.31 |
| QATSPFAPIYQMIRD | 2.59 |
| NWYVSDHTDNHHSMA | 2.49 |
| TQTQWKFHHYWESHS | 2.1 |
| RDTEIIFLPQYIIGY | 3.9 |
| FPYLPQYQISPDYFS | 2.23 |
| HTVDFRWEHRWHPHS | 1.75 |

Sample 3 — target: vanadate, free oxyanion; technique: microfluidic competitive inhibition; sample: in vitro, cell-free expressed; concentration: not given; reading: lower = stronger binding
Notes: derived from inhibition constants, unchanged parent 676 nM
Starting sequence: PafA, mature enzyme, eGFP fusion (Elizabethkingia meningoseptica, UniProt Q9KJX5); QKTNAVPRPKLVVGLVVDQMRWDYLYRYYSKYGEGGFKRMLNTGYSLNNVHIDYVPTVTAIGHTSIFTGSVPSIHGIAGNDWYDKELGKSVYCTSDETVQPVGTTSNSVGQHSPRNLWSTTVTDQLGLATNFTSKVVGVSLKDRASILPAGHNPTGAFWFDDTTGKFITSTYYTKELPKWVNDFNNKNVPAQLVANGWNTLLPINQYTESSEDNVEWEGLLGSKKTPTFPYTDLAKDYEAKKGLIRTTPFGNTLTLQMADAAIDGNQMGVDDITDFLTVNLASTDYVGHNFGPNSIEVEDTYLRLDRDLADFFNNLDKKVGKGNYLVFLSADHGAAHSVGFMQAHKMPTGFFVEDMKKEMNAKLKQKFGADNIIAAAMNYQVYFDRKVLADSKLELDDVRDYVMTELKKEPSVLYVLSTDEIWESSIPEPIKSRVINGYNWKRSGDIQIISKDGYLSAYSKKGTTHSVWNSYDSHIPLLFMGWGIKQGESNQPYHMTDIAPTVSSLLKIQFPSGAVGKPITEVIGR
| Substitution | oxyanion analog dissociation constant |
| --- | --- |
| K365G | 622 nM |
| L305G | 2.44 µM |
| F313V | 710 nM |
| A344V | 792 nM |
| N199V | 714 nM |
| I204G | 617 nM |
| S426G | 746 nM |
| A515V | 708 nM |

Single results of other studies
| SMILES | target | read-out | mode | concentration | relative to | quantity | value |
| --- | --- | --- | --- | --- | --- | --- | --- |
| N/C(=N\[N+](=O)[O-])N/N=C\c1ccc(-c2cccc([N+](=O)[O-])c2)o1 | Insulin receptor-related protein (INSRR, Homo sapiens, UniProt P14616) | enzyme activity | inhibitor | 0.5 µM | control | remaining activity | 99.2% |

Excerpt of the above (sample 3):
| Substitution | oxyanion analog dissociation constant |
| --- | --- |
| K365G | 622 nM |
| L305G | 2.44 µM |
| F313V | 710 nM |
